Measurements collected from several papers.
Protocols differ between the studies behind these lines. Numbers after ± are the reported error.

SMILES	test	system	conditions	quantity	result
CC(=O)NCCCC[C@@H]1NC(=O)[C@H](Cc2c[nH]c3c(C)cccc23)NC(=O)[C@H]([C@@H](C)O)NC(=O)[C@H](CC(N)=O)NC(=O)[C@@H](NC(C)=O)C(C)(C)SSC(C)(C)[C@@H](C(=O)N[C@@H](Cc2ccc(OCCN)cc2)C(=O)N[C@@H](Cc2ccc3ccccc3c2)C(=O)NC2(C(=O)N[C@@H](CCC(=O)O)C(=O)N[C@@H](CC(N)=O)C(=O)N[C@@H](Cc3cccnc3)C(=O)N(C)CC(N)=O)CCOCC2)NC1=O	equilibrium dialysis	rat, plasma	0.1 µM	plasma protein binding	47.9 ± 3.2%
CSCC[C@@H]1NC(=O)[C@H](C(C)C)NC(=O)[C@H](CCCNC(=N)N)NC(=O)CNC(=O)[C@@H]2CCCN2C(=O)[C@@H](NC(=O)CNC(=O)[C@H](CO)NC(=O)CNC(=O)[C@H](CO)NC(=S)Nc2ccc(C[C@H]3CN(CC(=O)O)CCN(CC(=O)O)CCN3CC(=O)O)cc2)CSSC[C@@H](C(N)=O)NC(=O)[C@@H]2CCCN2C(=O)CNC(=O)[C@H](CCC(=O)O)NC(=O)[C@H](CC(=O)O)NC(=O)[C@H](CC(=O)O)NC(=O)CNC(=O)[C@H](CC(C)C)NC(=O)[C@H](Cc2c[nH]cn2)NC(=O)[C@H](CC(C)C)NC(=O)CNC(=O)[C@H](Cc2c[nH]cn2)NC1=O [copper-64 labelled]	dynamic PET	CD rat, myocardial infarction, left ventricular blood pool	intravenous, 18.5 MBq	blood elimination half-life	26.2 ± 4.6 min
O=C1NC2(CC2)COc2ncc(F)cc2[C@H]2COCCN2c2ccn3ncc1c3n2		Sprague-Dawley rat, male, adrenals	oral, 20 mg/kg/day, 4 weeks dosing, end of recovery	organ-to-brain weight ratio	2.96 ± 0.36%
CCCC[C@H]1C(=O)N(C)[C@@H](CCCC)C(=O)N[C@@H](CCCNC(=O)CN2CCN(CC(=O)O)CCN(CC(=O)O)CCN(CC(=O)O)CC2)C(=O)N[C@H](C(=O)NCC(N)=O)CSCC(=O)N[C@@H](Cc2ccc(O)cc2)C(=O)N(C)[C@@H](C)C(=O)N[C@@H](CC(N)=O)C(=O)N2CCC[C@H]2C(=O)N[C@@H](Cc2c[nH]cn2)C(=O)N[C@@H](CC(C)C)C(=O)N(C)CC(=O)N[C@@H](Cc2c[nH]c3ccccc23)C(=O)N[C@@H](CO)C(=O)N[C@@H](Cc2c[nH]c3ccccc23)C(=O)N1C [gallium-68 labelled]		NOD/SCID mice with CHO-hPD-L1 xenograft, brain	60 min post injection	tissue uptake	0.62 ± 0.3 %ID/g
C=CC(=O)Nc1cccc(Cn2ncc3cnc(Nc4cnn(CCOC)c4)nc32)c1		female Sprague-Dawley rat	oral, 180 mg/kg/day, day 28, 28-day subacute toxicity	blood PDW	15.7 ± 0.41 fL
CN1Cc2cc(Cl)ccc2-n2c(nnc2C2CCN(c3cccc([18F])n3)CC2)C1		C57BL/6 mouse male, urinary bladder	intravenous, 3.7 MBq, 1 min	tissue uptake	1.72 ± 0.38 %ID/g
N#[11C]c1ccc(-c2csc(NN=C3CCCC3)n2)cc1		C57BL/6 mouse, male	intravenous, 3 MBq, 5 min	uptake in testis	1.74 ± 0.15 %ID/g
CC(C)[C@H](NC(=O)[C@@H](NC(=O)[C@H](CCCNC(=N)N)NC(=O)[C@H](CCCNC(=N)N)NC(=O)[C@H](CCCNC(=N)N)NC(=O)[C@H](CCC(N)=O)NC(=O)[C@H](CCCNC(=N)N)NC(=O)[C@H](CCCNC(=N)N)NC(=O)[C@H](CCCCN)NC(=O)[C@H](CCCCN)NC(=O)[C@H](CCCNC(=N)N)NC(=O)CN)[C@@H](C)O)C(=O)N[C@H](C(=O)N[C@@H](CO)C(=O)N1CCC[C@H]1C(=O)O)[C@@H](C)O		ICR mice, male, stomach	intranasal, 5 mg/kg daily, 4 weeks	organ weight	0.482 ± 0.075 g
Cc1ccccc1-c1ccc(-c2nc(-c3ccc(CN(C)CCCC(=O)O)c([18F])c3)no2)cc1C(F)(F)F		rat, liver	5 min	tracer uptake	3.65 %ID/g
CC(C)[C@@H]1NC(=O)CNC(=O)[C@H](CC(N)=O)NC(=O)[C@H](CCCNC(=N)N)NC(=O)[C@H](Cc2ccc(O)cc2)NC(=O)[C@H](C(C)C)NC(=O)[C@@H](NC(=O)[C@@H](NC(=O)[C@H](CC(N)=O)NC(=O)[C@H](Cc2c[nH]c3ccccc23)NC(=O)[C@H](C)NC(=O)[C@H](Cc2ccccc2)NC(=O)CNC(=O)[C@H](CCCCN)NC(=O)[C@H](Cc2ccccc2)NC(=O)[C@H](Cc2ccccc2)NC(=O)[C@H](CCCCN)NC(=O)OCC2c3ccccc3-c3ccccc32)C(C)C)CSSC[C@@H](C(=O)N[C@@H](Cc2c[nH]cn2)C(=O)N[C@@H](CCCNC(=N)N)C(=O)N[C@@H](CCCNC(=N)N)C(=O)N[C@@H](C)C(=O)N[C@@H](CC(N)=O)C(N)=O)NC(=O)[C@H](C(C)C)NC(=O)[C@H](CCCNC(=N)N)NC1=O		ICR mice, serum	intraductal mammary, 10 mg/kg, day 5	total protein	52.7 ± 0.77 g/L
CC1(C)C(NC(=O)C(=NOC2(C(=O)O)CC2)c2csc(N)n2)C(=O)N1OS(=O)(=O)O (stereo not drawn)		Kunming mouse	intravenous, 7-day observation	LD50	> 500 mg/kg
C#Cc1c(F)ccc2cc(O)cc(-c3ncc4c(N5CC6CCC(C5)N6C(=O)OC(C)OC(=O)C5CCCC5)nc(OC[C@@]56CCCN5C[C@H](F)C6)nc4c3F)c12 (stereo partly drawn)	chemical stability	simulated intestinal fluid	1 µM, 30 min	compound remaining	88.9%

Some of these lines once more:
SMILES	test	system	conditions	quantity	result
O=C1NC2(CC2)COc2ncc(F)cc2[C@H]2COCCN2c2ccn3ncc1c3n2		Sprague-Dawley rat, male, adrenals	oral, 20 mg/kg/day, 4 weeks dosing, end of recovery	organ-to-brain weight ratio	2.96 ± 0.36%
CCCC[C@H]1C(=O)N(C)[C@@H](CCCC)C(=O)N[C@@H](CCCNC(=O)CN2CCN(CC(=O)O)CCN(CC(=O)O)CCN(CC(=O)O)CC2)C(=O)N[C@H](C(=O)NCC(N)=O)CSCC(=O)N[C@@H](Cc2ccc(O)cc2)C(=O)N(C)[C@@H](C)C(=O)N[C@@H](CC(N)=O)C(=O)N2CCC[C@H]2C(=O)N[C@@H](Cc2c[nH]cn2)C(=O)N[C@@H](CC(C)C)C(=O)N(C)CC(=O)N[C@@H](Cc2c[nH]c3ccccc23)C(=O)N[C@@H](CO)C(=O)N[C@@H](Cc2c[nH]c3ccccc23)C(=O)N1C [gallium-68 labelled]		NOD/SCID mice with CHO-hPD-L1 xenograft, brain	60 min post injection	tissue uptake	0.62 ± 0.3 %ID/g
